Assay results gathered from unrelated publications.
Numbered parts are unrelated; each lists some results of a single study. Substitutions count along the parent as printed.
Chain of UniProt Q8IU80 (whole entry, looked up): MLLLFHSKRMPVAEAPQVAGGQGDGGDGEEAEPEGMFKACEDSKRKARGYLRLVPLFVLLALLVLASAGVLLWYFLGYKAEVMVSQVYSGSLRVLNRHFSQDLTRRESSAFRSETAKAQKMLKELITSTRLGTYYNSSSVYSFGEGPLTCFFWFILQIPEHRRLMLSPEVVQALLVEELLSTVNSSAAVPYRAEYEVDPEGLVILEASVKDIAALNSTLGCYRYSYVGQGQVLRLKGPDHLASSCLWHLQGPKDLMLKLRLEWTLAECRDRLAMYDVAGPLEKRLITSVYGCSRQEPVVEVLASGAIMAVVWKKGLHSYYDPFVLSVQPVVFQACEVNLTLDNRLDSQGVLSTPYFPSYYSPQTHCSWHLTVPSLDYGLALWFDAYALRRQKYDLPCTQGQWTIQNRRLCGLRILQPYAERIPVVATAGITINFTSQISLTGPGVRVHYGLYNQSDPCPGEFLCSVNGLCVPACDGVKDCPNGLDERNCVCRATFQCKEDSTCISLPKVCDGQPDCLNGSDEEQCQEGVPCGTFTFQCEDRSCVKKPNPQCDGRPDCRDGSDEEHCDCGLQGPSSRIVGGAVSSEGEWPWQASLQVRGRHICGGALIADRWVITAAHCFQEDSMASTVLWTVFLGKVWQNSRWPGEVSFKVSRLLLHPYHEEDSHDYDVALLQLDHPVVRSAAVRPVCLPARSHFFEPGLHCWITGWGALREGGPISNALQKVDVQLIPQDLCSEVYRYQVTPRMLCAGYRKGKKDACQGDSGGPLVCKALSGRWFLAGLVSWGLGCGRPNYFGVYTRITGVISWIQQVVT

Series 1 — target: CCNE1, cyclin fold, Cln2 fusion (human); method: yeast growth competition, sequencing; medium: yeast; notes: strong parent motif; relative to: not given; reading: higher = stronger binding
Starting sequence: viral docking peptide; TSVRRALFTGGSD; partner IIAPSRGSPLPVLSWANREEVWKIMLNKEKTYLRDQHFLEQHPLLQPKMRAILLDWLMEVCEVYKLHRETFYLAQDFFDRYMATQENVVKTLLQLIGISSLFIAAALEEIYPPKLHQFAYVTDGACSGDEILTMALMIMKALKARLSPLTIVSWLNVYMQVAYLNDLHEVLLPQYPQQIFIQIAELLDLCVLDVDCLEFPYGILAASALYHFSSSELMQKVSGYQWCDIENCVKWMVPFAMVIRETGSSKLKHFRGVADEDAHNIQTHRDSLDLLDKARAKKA
For `L7I`, “normalised enrichment score” read 0.739.
`R5F` — result for “normalised enrichment score”: -0.172.
For `S12F`, “normalised enrichment score” read 5.06.
For `G10S`, “normalised enrichment score” read 6.01.
`R4Q`: “normalised enrichment score” 1.69.
`T9Q`: “normalised enrichment score” 5.56.
`G11E`: “normalised enrichment score” 6.02.
For `L7H`, “normalised enrichment score” read -0.259.

Series 2 — target: UBE2D2 UBC core domain (UniProt P62837); method: yeast two-hybrid; medium: yeast; notes: mostly zero background; relative to: not given; reading: higher = stronger interaction
Chain of UniProt P62837 (whole entry, looked up): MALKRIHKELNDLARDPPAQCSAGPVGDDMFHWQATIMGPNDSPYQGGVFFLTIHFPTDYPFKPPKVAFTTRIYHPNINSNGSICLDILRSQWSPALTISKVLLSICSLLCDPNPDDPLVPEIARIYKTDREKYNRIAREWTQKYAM
B1: RNF14 RING domain (UniProt Q9UBS8); chain IKCFNSKLFLCSICFCEKLGSECMYFLECRHVYCKACLKDYFEIQIRDGQVQCLNCPEPKCPSVATPGQVK
B2: RNF149 RING domain (UniProt Q8NC42); chain EKGIDVDAENCAVCIENFKVKDIIRILPCKHIFHRICIDPWLLDHRTCPMCKLDVIKALGYW
B3: RNF32 RING domain (UniProt Q9H0A6); chain SLLQGDSVQPCPICKEEFELRPQVLLSCSHVFHKACLQAFEKFTNKKTCPLCRKNQYQTRVIH
B4: TRIM52 RING domain (UniProt Q96A61); chain PMQTLQEEAVCAICLDYFKDPVSISCGHNFCRGCVTQLWSKEDEEDQNEEEDEWEEEEDEEAV
Under “lacZ reporter activity”, `MANWVFCNRCFQPPHRTSCFSLTNCGHVYCDACLGKGKKNECLICKAPCRTVLLSK (RNF212 RING domain (UniProt Q495C1))` is recorded as 0.
`QLQDEEDDSLCRICMDAVIDCVLLECGHMVTCTKCGKRMSECPICRQYVVRAVHVF (RNF34 RING domain (UniProt Q969K3))` — result for “lacZ reporter activity”: 0.
`B1 (RNF14 RING domain)`: “lacZ reporter activity” 0.
For `FLKKLEQSFMCVCCQELVYQPVTTECFHNVCKDCLQRSFKAQVFSCPACRHDLGQNYIMI (UHRF2 RING domain (UniProt Q96PU4))`, “lacZ reporter activity” read 9140.
`B2 (RNF149 RING domain)` — result for “lacZ reporter activity”: 0.
Under “lacZ reporter activity”, `B3 (RNF32 RING domain)` is recorded as 0.
Under “lacZ reporter activity”, `ISNDSETLEECMVCSDMKRDTLFGPCGHIATCSLCSPRVKKCLICKEQVQSRTKIE (MIB1 RING domain (UniProt Q86YT6))` is recorded as 0.
Under “lacZ reporter activity”, `B4 (TRIM52 RING domain)` is recorded as 0.

Further values, each from its own experiment
`C=C1C[C@@H]2[C@H](CC[C@]3(C)C(=O)CC[C@@H]23)[C@@]2(C)C=CC(=O)C=C12` gave a viability of 101% (A-375; 100 µM, 18 h).
`CN(C)C(=O)COC(=O)Cc1ccc(OC(=O)c2ccc(NC(=N)N)cc2)cc1` has an IC50 of 7.8 nM (Transmembrane protease serine 6 (Homo sapiens, UniProt Q8IU80)).
The viability of `CC(C)OC(=O)[C@H](C)N[P@](=O)(CO[C@H](C)Cn1cnc2c(N)ncnc21)Oc1ccccc1` is reported as 103% (A-375; 100 µM, 18 h).
